Results of several laboratories.
Each line is one published result; not all experiments were run side by side. ± gives the spread as reported.

O=C(NOC[C@H](O)CO)c1ccc(F)c(F)c1Nc1ccc(I)cc1F  IC50 (MPNST-724; cell confluence): 0.279 µM
Cc1cc(C)c(-n2ccn(-c3c(C)cc(C)cc3C)c2=[Se])c(C)c1  IC50 (H157 lung carcinoma cells; cell viability, MTT; 72 h): > 10 µM
C/C1=C/C(=O)O[C@@H]2C[C@@H](CC[C@H](C)/C=C\C=C\CC1)O[C@@](OCCc1ccccc1)([C@@H]1CSC(=O)N1)C2  IC50 (MDA-MB-231; cell invasion, Cultrex BME invasion; concentration not given): 0.1 µM
COc1c(C)c2c(c(O)c1C/C=C(\C)CCC(=O)O)C(=O)OC2  IC50 (SAOS-2; cell proliferation; bone cancer): 3.24 µM
N=C(N)Nc1ccc(NC(=O)c2cc(C(F)(F)F)cc(C(F)(F)F)c2)cc1OCc1ccccc1C(F)(F)F  IC50 (HEK293 cells; cell viability; 48 h): > 500 µM
CN[C@@H]1C[C@H]2O[C@@](C)([C@@H]1OC)n1c3ccccc3c3c4c(c5c6ccccc6n2c5c31)C(=O)NC4  IC50 (Caco-2): 5.07 µM
C[C@H]1COCCN1c1nc(NCc2cccnc2C(F)(F)F)c2cccnc2n1  IC50 (cardiomyocytes; mitochondrial membrane potential; in vitro toxicology): > 100 µM
N.N.[Cl][Pt][Cl]  IC50 (A549 (compound-resistant); cell growth, inhibitor, CellTiter-Glo; 96 h): 9.6 µM
O=C(Oc1ccccc1)[c-]1cccc1.[Fe+2].c1cc[cH-]c1  IC50 (MCF-10A; cell growth, MTT; 72 h): no effect
N.N.[Cl][Pt][Cl]  IC50 (SGC-7901; CCK-8; with glutamine): 13.2 µM
O=C1[O][Pt]2([NH][C@@H]3CCCC[C@H]3[NH]2)[O]C1=O  IC50 (CT26; cytotoxicity, MTT; 72 h): 0.87 ± 0.02 µM
CN1CCN(S(=O)(=O)c2cc([N+](=O)[O-])ccc2N(CCOS(C)(=O)=O)CCOS(C)(=O)=O)CC1  IC50 (HCT-116 overexpressing AKR1C4; cell growth, sulforhodamine B; 96 h): 9.4 µM
CCCCCCCCCc1ccc(O)cc1  IC50 (AC16 cardiomyocytes; mitochondrial membrane potential decrease; 1 h): 4.35 ± 0.29 µM
N.N.[Cl][Pt][Cl]  IC50 (MDA-MB-468; cell viability; 48 h, light irradiation 2.5 min): 6.82 ± 0.23 µM

Some of these lines once more:
CCCCCCCCCc1ccc(O)cc1  IC50 (AC16 cardiomyocytes; mitochondrial membrane potential decrease; 1 h): 4.35 ± 0.29 µM
N.N.[Cl][Pt][Cl]  IC50 (MDA-MB-468; cell viability; 48 h, light irradiation 2.5 min): 6.82 ± 0.23 µM
